Measured values from different studies.
Numbered parts are unrelated; each lists some results of a single study. Several values in a cell are separate wells, animals, samples, runs or records.
UniProt P28482, sequence (whole entry, looked up): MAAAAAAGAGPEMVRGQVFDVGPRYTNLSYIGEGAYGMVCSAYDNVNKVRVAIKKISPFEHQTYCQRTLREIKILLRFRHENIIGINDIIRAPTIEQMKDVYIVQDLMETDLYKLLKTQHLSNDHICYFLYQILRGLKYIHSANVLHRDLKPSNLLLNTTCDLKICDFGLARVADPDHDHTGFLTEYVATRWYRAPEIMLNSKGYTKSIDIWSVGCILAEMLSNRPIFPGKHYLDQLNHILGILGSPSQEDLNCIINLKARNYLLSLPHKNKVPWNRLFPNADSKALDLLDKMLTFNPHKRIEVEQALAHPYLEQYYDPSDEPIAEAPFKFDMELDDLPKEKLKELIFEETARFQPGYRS
UniProt O75914, sequence (whole entry, looked up): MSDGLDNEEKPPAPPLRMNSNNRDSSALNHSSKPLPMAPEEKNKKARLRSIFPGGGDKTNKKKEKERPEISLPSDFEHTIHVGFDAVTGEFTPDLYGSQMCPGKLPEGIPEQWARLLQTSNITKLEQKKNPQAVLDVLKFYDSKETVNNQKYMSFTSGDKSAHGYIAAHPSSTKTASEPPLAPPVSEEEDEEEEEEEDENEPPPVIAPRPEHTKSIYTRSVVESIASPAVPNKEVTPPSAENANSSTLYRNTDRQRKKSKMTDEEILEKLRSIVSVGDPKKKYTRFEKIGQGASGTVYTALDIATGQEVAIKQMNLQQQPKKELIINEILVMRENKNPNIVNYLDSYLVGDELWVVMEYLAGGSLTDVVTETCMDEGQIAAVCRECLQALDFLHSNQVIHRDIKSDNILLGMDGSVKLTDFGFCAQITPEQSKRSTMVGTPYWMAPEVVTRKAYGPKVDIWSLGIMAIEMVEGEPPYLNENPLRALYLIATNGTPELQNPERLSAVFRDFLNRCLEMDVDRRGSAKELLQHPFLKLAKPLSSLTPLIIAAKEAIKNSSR
UniProt Q16832, sequence (whole entry, looked up): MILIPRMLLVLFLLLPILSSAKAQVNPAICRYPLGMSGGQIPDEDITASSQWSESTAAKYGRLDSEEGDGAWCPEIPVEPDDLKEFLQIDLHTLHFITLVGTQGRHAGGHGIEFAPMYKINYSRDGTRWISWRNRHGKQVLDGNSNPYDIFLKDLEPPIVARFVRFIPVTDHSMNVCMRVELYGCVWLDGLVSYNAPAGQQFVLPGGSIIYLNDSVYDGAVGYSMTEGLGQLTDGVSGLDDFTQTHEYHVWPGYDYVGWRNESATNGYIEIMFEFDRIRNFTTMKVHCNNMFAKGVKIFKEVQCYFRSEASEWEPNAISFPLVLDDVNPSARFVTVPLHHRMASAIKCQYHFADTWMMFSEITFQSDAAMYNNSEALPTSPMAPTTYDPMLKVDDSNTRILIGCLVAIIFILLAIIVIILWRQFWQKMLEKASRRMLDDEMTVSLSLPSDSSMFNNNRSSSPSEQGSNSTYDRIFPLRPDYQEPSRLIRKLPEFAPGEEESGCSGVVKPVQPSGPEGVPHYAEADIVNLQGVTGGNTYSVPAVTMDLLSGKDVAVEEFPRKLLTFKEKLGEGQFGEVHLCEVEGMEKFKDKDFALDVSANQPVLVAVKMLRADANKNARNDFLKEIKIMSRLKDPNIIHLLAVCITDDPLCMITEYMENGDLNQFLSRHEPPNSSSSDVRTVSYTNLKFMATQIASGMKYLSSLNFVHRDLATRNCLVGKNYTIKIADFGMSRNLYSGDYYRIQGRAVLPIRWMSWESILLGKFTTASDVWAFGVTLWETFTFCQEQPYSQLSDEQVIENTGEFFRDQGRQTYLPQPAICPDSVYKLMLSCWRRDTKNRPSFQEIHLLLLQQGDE
UniProt P06493, sequence (whole entry, looked up): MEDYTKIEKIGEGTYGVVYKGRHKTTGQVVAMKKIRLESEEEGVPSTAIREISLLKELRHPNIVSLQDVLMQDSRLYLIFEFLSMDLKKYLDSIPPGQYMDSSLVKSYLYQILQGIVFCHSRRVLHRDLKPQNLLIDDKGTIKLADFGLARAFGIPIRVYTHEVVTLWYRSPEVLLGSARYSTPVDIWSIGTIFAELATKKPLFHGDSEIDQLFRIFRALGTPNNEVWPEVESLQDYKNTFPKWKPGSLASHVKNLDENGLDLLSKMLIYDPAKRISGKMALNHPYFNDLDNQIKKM
UniProt Q02750, sequence (whole entry, looked up): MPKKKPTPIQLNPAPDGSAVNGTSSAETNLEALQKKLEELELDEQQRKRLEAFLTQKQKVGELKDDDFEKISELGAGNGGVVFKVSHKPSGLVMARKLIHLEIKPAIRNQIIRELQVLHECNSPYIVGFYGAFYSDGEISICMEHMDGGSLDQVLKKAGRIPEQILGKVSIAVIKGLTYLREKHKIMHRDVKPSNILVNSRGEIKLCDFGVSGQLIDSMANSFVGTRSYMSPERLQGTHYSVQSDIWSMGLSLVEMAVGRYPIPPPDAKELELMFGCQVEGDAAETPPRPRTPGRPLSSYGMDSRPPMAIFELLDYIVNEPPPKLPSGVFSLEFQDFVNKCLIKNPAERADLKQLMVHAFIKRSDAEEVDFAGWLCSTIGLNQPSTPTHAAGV
UniProt Q16566, sequence (whole entry, looked up): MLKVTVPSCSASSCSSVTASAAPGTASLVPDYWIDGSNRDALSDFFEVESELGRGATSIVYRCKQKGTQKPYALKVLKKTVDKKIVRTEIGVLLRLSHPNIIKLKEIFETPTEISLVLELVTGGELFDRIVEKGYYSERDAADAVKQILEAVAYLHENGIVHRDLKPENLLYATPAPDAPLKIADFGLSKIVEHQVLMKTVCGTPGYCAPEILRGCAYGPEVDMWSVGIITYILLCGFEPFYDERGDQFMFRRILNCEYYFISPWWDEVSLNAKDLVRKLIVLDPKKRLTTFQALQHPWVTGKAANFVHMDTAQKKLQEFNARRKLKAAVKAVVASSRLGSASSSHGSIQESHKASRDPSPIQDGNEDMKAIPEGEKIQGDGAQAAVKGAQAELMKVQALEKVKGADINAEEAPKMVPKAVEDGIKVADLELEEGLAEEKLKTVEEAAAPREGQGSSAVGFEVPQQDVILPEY
UniProt Q8N4C8, sequence (whole entry, looked up): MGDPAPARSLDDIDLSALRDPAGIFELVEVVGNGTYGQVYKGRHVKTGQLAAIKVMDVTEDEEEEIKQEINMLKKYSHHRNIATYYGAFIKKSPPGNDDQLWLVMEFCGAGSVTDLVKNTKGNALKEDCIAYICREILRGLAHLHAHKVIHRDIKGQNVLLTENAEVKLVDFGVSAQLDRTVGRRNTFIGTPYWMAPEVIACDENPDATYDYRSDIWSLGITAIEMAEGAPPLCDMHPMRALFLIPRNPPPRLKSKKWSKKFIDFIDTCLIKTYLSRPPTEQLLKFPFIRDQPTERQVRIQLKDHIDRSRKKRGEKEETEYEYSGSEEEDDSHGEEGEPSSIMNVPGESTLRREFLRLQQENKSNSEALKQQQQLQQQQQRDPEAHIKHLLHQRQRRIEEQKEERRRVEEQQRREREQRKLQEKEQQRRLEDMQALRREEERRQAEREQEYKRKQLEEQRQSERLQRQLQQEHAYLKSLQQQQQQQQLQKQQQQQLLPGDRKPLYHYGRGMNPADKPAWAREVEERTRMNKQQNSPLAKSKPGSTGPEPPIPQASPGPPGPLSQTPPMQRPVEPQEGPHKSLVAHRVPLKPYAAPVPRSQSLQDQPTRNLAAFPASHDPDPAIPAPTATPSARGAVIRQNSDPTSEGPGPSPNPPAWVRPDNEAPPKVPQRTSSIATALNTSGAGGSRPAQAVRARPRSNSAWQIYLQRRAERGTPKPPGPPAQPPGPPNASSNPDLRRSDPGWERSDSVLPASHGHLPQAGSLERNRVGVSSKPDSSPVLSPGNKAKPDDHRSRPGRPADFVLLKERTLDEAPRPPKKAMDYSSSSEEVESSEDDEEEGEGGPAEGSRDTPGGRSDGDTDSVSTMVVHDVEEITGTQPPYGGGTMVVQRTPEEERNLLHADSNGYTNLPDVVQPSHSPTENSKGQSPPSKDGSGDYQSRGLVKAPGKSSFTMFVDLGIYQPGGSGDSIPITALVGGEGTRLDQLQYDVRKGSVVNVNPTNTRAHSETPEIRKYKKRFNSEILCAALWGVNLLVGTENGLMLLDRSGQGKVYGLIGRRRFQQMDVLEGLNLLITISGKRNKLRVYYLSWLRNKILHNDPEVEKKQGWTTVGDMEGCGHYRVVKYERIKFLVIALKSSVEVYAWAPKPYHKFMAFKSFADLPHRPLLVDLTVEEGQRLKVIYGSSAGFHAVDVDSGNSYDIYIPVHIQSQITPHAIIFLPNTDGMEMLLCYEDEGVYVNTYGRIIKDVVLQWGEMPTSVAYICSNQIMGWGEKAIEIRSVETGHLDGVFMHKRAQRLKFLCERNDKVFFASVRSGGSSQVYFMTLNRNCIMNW
UniProt Q16539, sequence (whole entry, looked up): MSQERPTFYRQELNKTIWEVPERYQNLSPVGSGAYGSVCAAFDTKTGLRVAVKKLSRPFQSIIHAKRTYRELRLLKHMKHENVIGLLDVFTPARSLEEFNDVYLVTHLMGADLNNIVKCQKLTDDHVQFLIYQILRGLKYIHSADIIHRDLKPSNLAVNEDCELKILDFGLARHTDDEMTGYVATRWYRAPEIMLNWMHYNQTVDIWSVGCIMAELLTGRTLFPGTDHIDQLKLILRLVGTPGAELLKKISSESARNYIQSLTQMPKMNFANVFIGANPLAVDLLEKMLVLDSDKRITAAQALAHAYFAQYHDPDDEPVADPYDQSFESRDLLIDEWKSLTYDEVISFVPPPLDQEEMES

Study 1
Target: Histamine H2 receptor (HRH2, Homo sapiens, UniProt P25021)
UniProt P25021, sequence (whole entry, looked up): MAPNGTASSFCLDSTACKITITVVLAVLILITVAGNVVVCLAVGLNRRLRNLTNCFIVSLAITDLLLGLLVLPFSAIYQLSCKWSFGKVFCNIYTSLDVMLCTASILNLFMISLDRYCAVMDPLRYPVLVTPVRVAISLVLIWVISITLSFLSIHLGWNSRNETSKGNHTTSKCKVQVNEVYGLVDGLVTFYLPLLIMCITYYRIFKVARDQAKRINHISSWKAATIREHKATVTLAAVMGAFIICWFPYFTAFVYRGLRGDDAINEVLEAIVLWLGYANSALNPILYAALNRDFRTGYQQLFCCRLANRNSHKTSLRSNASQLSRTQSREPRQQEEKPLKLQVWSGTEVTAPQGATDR
Read-out: ligand displacement
Concentration: 10 µM
CCC(F)(F)c1cc(N2CCC(S(C)(=O)=O)CC2)nc2sc(C(N)=O)c(N)c12 has an inhibition of -16.7%.
For Cn1nc(C(=O)NCc2ccc(C(=O)O)cc2)cc1-c1ccc2[nH]ccc2c1, the inhibition was 8.57%.
CN1CCN(c2cnc3c(C4CCN(C(=O)c5ccc(OC(F)(F)F)cc5N)CC4)ncnc3c2)CC1 gave an inhibition of 31.2%.
Cc1c(NC(=O)c2cc(C(N)=O)nc3cc(F)ccc23)c(C(F)(F)F)nn1Cc1ccc(C#N)cc1 has an inhibition of 30.4%.
O=c1nc(-c2ccccn2)sc2ccccc12 has an inhibition of 24.4%.
COc1cc(N[C@@H]2CCCC[C@]2(O)C(F)(F)F)ccc1F gave an inhibition of 89%.
With CC(=O)Nc1ncc(CN2CCC[C@H](Cc3cc(C)nc(C)c3)C2)s1 the inhibition was 3.45%.
Nc1cnc(N2CCc3cc(S(=O)(=O)Nc4c(F)cc(Cl)cc4F)cc(N4CCCC4=O)c32)nc1 gave an inhibition of 8.19%.
O=C1NC(c2ccccn2)Sc2ccccc21 (stereo not shown) has an inhibition of 24.8%.
For CN(C)CC#Cc1ccc(OCCCc2sc(N3CCc4cccc(C(=O)Nc5nc6ccccc6s5)c4C3)nc2C(=O)O)c(F)c1, the inhibition was 23.2%.
The inhibition of CCOc1ccc(S(=O)(=O)Nc2ccc(Cl)cc2C#Cc2cnc(C(=O)O)cc2OC)c2ncccc12 is reported as 24.2%.
With c1ccc(C2CCN(c3cnc4c(N5CCOCC5)nccn34)CC2)cc1 the inhibition was -11%.
With COc1ccc2cc(OCC3(C(=O)O)CN(C(=O)c4ccc(F)cc4)C3)ccc2c1 the inhibition was 3%.
The inhibition of O=C(NCCCC1CCCCC1)c1ccc(CNC(=O)c2cnn(-c3ccccc3)c2C(F)(F)F)cc1 is reported as -2.78%.
CN(C)c1ncnc(-c2ccc3nc(Nc4cc(CN5CCN(C(=O)CC(F)(F)F)CC5)ccn4)[nH]c3c2)c1Cl has an inhibition of 32.6%.
With CNC(=O)Nc1ccc2c(c1)CC[C@]21OC(=O)N(CC(=O)N(Cc2ccc(F)cc2)[C@@H](C)C(F)(F)F)C1=O the inhibition was 28.2%.
For O=S(=O)(NC1CCC(c2cc(F)ccc2F)(S(=O)(=O)c2ccc(Cl)cc2)CC1)C(F)(F)F (stereo not shown), the inhibition was -16.9%.
Cc1noc([C@H]2C[C@@H](c3ccc(C(F)(F)F)cc3)CN(C(=O)N3CCS(=O)(=O)C3)C2)n1 gave an inhibition of -11.8%.

Study 2
Structure (SMILES): FC(F)(F)c1ccc(/C=C/c2nc(COc3ccc(CCCCn4ccnn4)cc3)co2)cc1
Read-out: enzyme activity
Action: inhibitor
Concentration: 0.5 µM
Reference: control
For Discoidin domain-containing receptor 2 (DDR2, Homo sapiens, UniProt Q16832): remaining activity read 101%.
For Mitogen-activated protein kinase 14 (MAPK14, Homo sapiens, UniProt Q16539): remaining activity read 103%.
Mitogen-activated protein kinase 1 (MAPK1, Homo sapiens, UniProt P28482) — remaining activity: 88.6%.
RAC-beta serine/threonine-protein kinase (AKT2, Homo sapiens, UniProt P31751) — remaining activity: 99.9%.
The remaining activity was 100% (Rho-associated protein kinase 1 (ROCK1, Homo sapiens, UniProt Q13464)).
The remaining activity was 120% (Dual specificity mitogen-activated protein kinase kinase 1 (MAP2K1, Homo sapiens, UniProt Q02750)).
Dual specificity protein kinase CLK3 (CLK3, Homo sapiens, UniProt P49761) — remaining activity: 92.2%.
Serine/threonine-protein kinase MARK2 (MARK2, Homo sapiens, UniProt Q7KZI7) — remaining activity: 105%.
The remaining activity was 107% (Serine/threonine-protein kinase PLK3 (PLK3, Homo sapiens, UniProt Q9H4B4)).
For Serine/threonine-protein kinase PAK 3 (PAK3, Homo sapiens, UniProt O75914): remaining activity read 101%.
It gave 92.6% for remaining activity (Cyclin-dependent kinase 1, with cyclin A (CDK1, Homo sapiens, UniProt P06493)).
It gave 97.7% for remaining activity (Calcium/calmodulin-dependent protein kinase type IV (CAMK4, Homo sapiens, UniProt Q16566)).
Misshapen-like kinase 1 (MINK1, Homo sapiens, UniProt Q8N4C8) — remaining activity: 96.8%.
The remaining activity was 102% (Serine/threonine-protein kinase DCLK2 (DCLK2, Homo sapiens, UniProt Q8N568)).

Study 3
SMILES: COc1ccc(-c2c(Nc3ccccn3)[nH]c3c(C4=CCCCC4)c(-c4ccccc4)nn3c2=O)cc1
Medium: plasma
Route: oral
The “plasma concentration, mean” was 0.162 µg/mL (cancer patients; 50 mg, 1 h post-dose, single dose).
The “plasma concentration, mean” was 0.801 µg/mL (cancer patients; 150 mg, 24 h post-dose, single dose).
For cancer patients; 100 mg, 2 h post-dose, single dose: “plasma concentration, mean” read 0.985 µg/mL.
The “plasma concentration, mean” was 3.28 µg/mL (human patients; 400 mg once daily, 0.5 h, cycle 1).
It gave 7.46 µg/mL for “plasma concentration, mean” (human patients; 200 mg once daily, 2 h, cycle 1).
For LC-MS/MS; human; 200 mg twice daily, 3 h: “plasma concentration, mean” read 12.4 µg/mL.
human patients; 150 mg once daily, 6 h, cycle 1 — “plasma concentration, mean”: 5.27 µg/mL.
For cancer patients; 200 mg, 4 h post-dose, single dose: “plasma concentration, mean” read 1.45 µg/mL.
It gave 1.09 µg/mL for “plasma concentration, mean” (LC-MS/MS; human; 50 mg once daily, 0 h, cycle 1).
LC-MS/MS; human; 200 mg twice daily, 24 h — “plasma concentration, mean”: 12.7 µg/mL.

Other studies, line by line
For CC(=O)N[C@@H](Cc1c[nH]c2ccccc12)C(=O)N[C@@H](CCC(=O)C=[N+]=[N-])C(=O)OC(C)C, “pyridoxamine phosphate level” read 487000 a.u. and 968000 a.u. and 880000 a.u. and 592000 a.u. and 1.16e+06 a.u. and 835000 a.u. (UPLC-MS/MS; EL4 tumor, C57BL/6 CES1-/- mice, tumor; subcutaneous, 0.3 mg/kg DON equivalent daily, 5 days; higher = more metabolite).
